# Published values gathered from unrelated publications.
# Compare with care: the assays were run in different laboratories. ± gives the spread as reported.
# GABA-A receptor; alpha-1/beta-3/gamma-2: GABA-A receptor; alpha-1/beta-3/gamma-2 (Homo sapiens, UniProt P14867+P18507+P28472)
# Sequence of UniProt P28472 (whole entry, unmodified, looked up): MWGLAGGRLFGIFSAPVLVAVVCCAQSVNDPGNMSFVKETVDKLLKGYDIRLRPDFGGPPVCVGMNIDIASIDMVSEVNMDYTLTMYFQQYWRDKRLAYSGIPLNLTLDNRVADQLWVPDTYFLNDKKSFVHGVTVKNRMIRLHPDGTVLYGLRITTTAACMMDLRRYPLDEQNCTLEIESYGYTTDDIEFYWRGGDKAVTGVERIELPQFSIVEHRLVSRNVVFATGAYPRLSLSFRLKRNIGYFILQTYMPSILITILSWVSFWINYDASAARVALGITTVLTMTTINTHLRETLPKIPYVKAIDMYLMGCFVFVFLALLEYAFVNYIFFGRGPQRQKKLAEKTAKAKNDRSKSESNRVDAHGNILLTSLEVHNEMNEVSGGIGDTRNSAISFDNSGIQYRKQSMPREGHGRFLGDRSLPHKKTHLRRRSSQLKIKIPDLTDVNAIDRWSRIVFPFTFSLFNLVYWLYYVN
# Sequence of UniProt P14867 (whole entry, unmodified, looked up): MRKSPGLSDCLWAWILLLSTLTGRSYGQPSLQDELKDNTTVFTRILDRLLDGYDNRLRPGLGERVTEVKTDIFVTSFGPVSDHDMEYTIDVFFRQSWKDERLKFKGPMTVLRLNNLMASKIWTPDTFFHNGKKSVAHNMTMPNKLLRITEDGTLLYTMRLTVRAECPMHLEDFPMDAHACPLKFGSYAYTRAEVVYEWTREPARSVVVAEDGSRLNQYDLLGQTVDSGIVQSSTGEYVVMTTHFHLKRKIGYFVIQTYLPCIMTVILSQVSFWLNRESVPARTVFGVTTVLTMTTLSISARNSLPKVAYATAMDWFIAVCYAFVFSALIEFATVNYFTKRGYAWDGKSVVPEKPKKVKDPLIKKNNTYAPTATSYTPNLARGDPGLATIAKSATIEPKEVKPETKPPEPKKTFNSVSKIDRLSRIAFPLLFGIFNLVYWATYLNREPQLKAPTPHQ
# Sequence of UniProt P18507 (whole entry, looked up): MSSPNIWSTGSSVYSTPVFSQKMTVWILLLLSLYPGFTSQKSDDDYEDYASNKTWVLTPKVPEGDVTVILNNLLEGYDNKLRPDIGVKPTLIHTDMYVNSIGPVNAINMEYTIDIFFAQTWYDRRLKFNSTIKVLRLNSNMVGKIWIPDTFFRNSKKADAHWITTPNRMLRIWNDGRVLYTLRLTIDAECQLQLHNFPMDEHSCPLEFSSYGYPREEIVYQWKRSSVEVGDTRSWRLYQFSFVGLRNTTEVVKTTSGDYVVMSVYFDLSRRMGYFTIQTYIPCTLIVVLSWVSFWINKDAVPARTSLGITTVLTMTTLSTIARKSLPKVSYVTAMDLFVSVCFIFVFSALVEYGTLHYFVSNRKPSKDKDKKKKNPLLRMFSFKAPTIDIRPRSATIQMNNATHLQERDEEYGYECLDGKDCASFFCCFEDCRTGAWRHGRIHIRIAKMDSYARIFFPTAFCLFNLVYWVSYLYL
# GABA A receptor alpha-1/beta-1/gamma-2: GABA A receptor alpha-1/beta-1/gamma-2 (Homo sapiens, UniProt P14867+P18505+P18507)
# Sequence of UniProt P18505 (whole entry, looked up): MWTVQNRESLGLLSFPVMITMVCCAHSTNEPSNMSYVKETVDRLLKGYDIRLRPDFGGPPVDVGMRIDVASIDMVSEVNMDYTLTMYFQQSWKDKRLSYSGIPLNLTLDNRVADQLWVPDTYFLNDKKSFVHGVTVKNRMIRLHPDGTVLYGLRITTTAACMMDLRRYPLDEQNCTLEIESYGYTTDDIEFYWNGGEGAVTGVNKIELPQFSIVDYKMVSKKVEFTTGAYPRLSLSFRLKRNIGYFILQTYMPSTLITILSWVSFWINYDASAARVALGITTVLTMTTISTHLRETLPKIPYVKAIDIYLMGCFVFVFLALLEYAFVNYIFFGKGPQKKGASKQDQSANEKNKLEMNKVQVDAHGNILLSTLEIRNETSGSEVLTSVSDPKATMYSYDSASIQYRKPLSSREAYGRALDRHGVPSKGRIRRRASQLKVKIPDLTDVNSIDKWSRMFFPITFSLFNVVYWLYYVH
# GABRA1/GABRB3 L291T with gamma-2 subunit: GABA-A receptor alpha-1/beta-3, with gamma-2 subunit (GABRA1/GABRB3, Homo sapiens, UniProt P14867+P28472, L291T)
# Sterol carrier protein 2: Sterol carrier protein 2 (Homo sapiens, UniProt P22307)
# Sequence of UniProt P22307 (whole entry, looked up): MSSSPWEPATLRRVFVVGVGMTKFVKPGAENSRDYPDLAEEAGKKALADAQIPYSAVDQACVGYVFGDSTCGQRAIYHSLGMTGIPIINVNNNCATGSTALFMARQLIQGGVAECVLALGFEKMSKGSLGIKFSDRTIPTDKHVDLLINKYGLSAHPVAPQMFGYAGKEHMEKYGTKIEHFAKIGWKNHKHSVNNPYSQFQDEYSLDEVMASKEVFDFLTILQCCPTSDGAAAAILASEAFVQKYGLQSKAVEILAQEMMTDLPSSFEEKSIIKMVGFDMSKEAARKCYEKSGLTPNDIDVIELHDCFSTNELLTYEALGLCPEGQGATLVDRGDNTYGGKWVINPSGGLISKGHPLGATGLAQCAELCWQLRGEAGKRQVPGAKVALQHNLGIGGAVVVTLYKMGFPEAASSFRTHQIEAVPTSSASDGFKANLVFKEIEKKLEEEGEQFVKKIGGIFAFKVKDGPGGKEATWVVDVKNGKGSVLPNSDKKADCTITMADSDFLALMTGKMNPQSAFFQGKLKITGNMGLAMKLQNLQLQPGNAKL
# Sequence of UniProt P08908 (whole entry, looked up): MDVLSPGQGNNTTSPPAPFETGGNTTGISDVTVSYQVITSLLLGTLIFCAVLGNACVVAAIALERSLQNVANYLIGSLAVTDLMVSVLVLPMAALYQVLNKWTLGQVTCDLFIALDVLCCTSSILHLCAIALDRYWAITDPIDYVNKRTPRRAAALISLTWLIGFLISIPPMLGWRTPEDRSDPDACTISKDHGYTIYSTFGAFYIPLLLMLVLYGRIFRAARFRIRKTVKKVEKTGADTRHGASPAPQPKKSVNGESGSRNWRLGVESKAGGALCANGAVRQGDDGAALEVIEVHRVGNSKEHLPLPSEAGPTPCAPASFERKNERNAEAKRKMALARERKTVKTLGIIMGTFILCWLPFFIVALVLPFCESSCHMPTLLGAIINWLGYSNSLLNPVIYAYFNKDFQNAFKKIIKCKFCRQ
# Sequence of UniProt P33533 (whole entry, looked up): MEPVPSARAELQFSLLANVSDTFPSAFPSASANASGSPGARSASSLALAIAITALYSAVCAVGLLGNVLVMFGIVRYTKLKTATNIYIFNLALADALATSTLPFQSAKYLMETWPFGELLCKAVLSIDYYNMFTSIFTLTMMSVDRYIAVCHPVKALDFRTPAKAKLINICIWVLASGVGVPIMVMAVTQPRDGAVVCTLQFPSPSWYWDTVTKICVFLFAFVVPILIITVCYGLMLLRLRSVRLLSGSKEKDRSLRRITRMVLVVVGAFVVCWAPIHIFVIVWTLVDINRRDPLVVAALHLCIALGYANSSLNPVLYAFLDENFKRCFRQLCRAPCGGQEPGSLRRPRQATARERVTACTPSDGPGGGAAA
# Sequence of UniProt Q923Y8 (whole entry, unmodified, looked up): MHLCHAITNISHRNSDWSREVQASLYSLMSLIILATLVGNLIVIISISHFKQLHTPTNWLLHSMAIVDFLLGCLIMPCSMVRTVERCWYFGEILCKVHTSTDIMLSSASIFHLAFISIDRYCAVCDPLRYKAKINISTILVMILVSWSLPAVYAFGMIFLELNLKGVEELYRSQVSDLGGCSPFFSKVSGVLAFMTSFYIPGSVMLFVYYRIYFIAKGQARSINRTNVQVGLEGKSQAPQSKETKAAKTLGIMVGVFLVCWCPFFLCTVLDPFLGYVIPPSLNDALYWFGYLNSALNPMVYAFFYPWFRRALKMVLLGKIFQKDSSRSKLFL
# Sequence of UniProt P28223 (whole entry, looked up): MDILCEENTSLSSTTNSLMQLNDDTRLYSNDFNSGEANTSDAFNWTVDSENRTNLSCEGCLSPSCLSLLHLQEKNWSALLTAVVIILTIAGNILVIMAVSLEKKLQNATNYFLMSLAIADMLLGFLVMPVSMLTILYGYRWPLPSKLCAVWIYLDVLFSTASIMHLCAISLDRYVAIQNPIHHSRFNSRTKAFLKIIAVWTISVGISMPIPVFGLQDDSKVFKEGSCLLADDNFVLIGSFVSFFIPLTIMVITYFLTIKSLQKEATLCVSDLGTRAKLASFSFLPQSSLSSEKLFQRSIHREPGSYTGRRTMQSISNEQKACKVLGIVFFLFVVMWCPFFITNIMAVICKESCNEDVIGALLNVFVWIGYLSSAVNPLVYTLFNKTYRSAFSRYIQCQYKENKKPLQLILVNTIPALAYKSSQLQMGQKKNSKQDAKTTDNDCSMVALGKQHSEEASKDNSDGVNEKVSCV
# Sequence of UniProt P10275 (whole entry, looked up): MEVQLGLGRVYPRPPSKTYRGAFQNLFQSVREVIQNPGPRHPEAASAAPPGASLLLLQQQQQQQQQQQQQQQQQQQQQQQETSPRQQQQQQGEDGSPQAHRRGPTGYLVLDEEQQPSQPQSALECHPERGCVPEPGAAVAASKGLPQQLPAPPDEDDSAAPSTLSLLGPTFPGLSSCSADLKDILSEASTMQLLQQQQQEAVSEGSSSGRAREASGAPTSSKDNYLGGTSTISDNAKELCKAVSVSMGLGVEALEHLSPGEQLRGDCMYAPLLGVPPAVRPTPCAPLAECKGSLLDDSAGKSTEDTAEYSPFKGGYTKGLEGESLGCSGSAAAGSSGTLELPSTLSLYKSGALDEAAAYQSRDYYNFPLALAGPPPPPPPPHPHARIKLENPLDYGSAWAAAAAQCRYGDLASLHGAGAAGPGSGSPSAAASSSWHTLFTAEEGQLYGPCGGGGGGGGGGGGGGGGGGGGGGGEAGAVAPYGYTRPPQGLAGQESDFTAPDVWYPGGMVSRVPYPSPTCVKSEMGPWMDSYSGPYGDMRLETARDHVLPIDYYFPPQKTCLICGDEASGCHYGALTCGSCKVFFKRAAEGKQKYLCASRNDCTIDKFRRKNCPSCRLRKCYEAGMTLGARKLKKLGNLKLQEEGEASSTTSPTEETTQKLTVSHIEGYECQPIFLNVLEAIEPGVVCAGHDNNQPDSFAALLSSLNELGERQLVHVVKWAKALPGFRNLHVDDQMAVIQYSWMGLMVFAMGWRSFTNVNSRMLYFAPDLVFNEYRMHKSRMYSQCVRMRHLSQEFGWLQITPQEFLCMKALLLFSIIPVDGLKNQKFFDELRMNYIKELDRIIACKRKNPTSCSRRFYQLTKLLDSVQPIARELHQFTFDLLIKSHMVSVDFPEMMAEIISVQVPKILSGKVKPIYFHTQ
Structure (SMILES),target,test,test system,conditions,scale,EC50 [µM]
CCOC(=O)c1cncn1[C@H](C)c1ccc(Br)cc1,GABA-A receptor; alpha-1/beta-3/gamma-2,"potentiation of GABA current, positive allosteric modulator, two-electrode voltage clamp",Xenopus oocytes,added: GABA EC5,,2.5
C[C@@]1(O)CC[C@H]2[C@H](CC[C@@H]3[C@@H]2CC[C@]2(C)[C@@H](C(=O)Cn4cc(C#N)cn4)CC[C@@H]32)C1,GABA A receptor alpha-1/beta-1/gamma-2,"GABA current potentiation, positive modulator, two-electrode voltage clamp",Xenopus laevis oocytes,"30 s preincubation, added: GABA EC10",,0.08 ± 0.02
COC(=O)C[C@@H](C)OC(=O)c1cncn1[C@H](C)c1ccccc1,GABRA1/GABRB3 L291T with gamma-2 subunit,"ion current, agonist, two-electrode voltage clamp",Xenopus oocytes,,baseline: 100 µM GABA,11 ± 1
C[C@]12CC[C@@H](O)C[C@@H]1CC[C@@H]1[C@@H]2CC[C@]2(C)[C@@H](C(=O)CO)CC[C@@H]12,"GABA-A receptor alpha-1/beta-3 (GABRA1/GABRB3, Homo sapiens, UniProt P14867+P28472)","[3H]muscimol binding modulation, modulator",native membranes,added: 2 nM [3H]muscimol,,1
CN1CC[C@]2(c3cccc(O)c3)Cc3nc4ccccc4cc3C[C@H]2C1,"Oprd1 (Rattus norvegicus, UniProt P33533)",agonist,"ethanol-trained rat, rat cerebral cortex membranes",added: yohimbine 2 mg/kg intraperitoneal,,21 ± 3.9
CCOC(=O)c1cncn1[C@H](C)c1ccc(F)cc1,GABA-A receptor; alpha-1/beta-3/gamma-2,"potentiation of GABA current, positive allosteric modulator, two-electrode voltage clamp",Xenopus oocytes,added: GABA EC5,,1.6
CC(=O)[C@H]1CC[C@H]2[C@@H]3CC[C@H]4C[C@H](O)CC[C@]4(C)[C@H]3CC[C@]12C,GABA A receptor alpha-1/beta-1/gamma-2,"GABA current potentiation, positive modulator, two-electrode voltage clamp",Xenopus laevis oocytes,"30 s preincubation, added: GABA EC10",,0.09 ± 0.02
CN1C(=O)CN=C(c2ccccc2)c2cc([N+](=O)[O-])ccc21,"Androgen receptor (AR, Homo sapiens, UniProt P10275)",,human cells,concentration not given,,4.4
CCOC(=O)c1cncn1C(C)c1ccc2ccccc2c1 (centres unmarked),GABA-A receptor; alpha-1/beta-3/gamma-2,"potentiation of GABA current, positive allosteric modulator, two-electrode voltage clamp",Xenopus oocytes,added: GABA EC5,,19
COC(=O)[C@@H](C)COC(=O)c1cncn1[C@H](C)c1ccccc1,GABRA1/GABRB3 L291T with gamma-2 subunit,"ion current, agonist, two-electrode voltage clamp",Xenopus oocytes,,baseline: 100 µM GABA,11 ± 2
CCCCC/C=C\C/C=C\C/C=C\C/C=C\CCCC(=O)NCCc1ccc(O)c(O)c1,Sterol carrier protein 2,"NBDS displacement, fluorescent probe displacement",,"50% of maximum displacement, added: NBDS 500 nM",,2.54 ± 0.05
CC(=O)[C@H]1CC[C@H]2[C@@H]3CC[C@H]4C[C@](C)(O)CC[C@]4(C)[C@H]3CC[C@]12C,GABA A receptor alpha-1/beta-1/gamma-2,"GABA current potentiation, positive modulator, two-electrode voltage clamp",Xenopus laevis oocytes,"30 s preincubation, added: GABA EC10",,0.13 ± 0.04
COc1ccc2[nH]cc(CCNC(C)C)c2c1,"HTR2A (Homo sapiens, UniProt P28223)","β-arrestin recruitment, agonist",,,,1.07
CCOC(=O)c1cccn1[C@H](C)c1ccccc1,GABRA1/GABRB3 L291T with gamma-2 subunit,"ion current, agonist, two-electrode voltage clamp",Xenopus oocytes,,baseline: 100 µM GABA,13.8 ± 0.9
NCCc1ccc(Oc2ccc(O)cc2)c(I)c1,"Taar1 (Mus musculus, UniProt Q923Y8, Y153F)","cAMP accumulation, agonist, cell-based",,TM4 mutant,,0.067 ± 0.017
CCN(CC)CCc1c[nH]c2ccc(OC)cc12,"HTR1A (Homo sapiens, UniProt P08908)","calcium signal, agonist",,,,0.911
COC(=O)[C@@H](C)OC(=O)c1cncn1[C@H](C)c1ccccc1,GABRA1/GABRB3 L291T with gamma-2 subunit,"ion current, agonist, two-electrode voltage clamp",Xenopus oocytes,,baseline: 100 µM GABA,8.2 ± 0.9
CCCCC/C=C\C/C=C\C/C=C\C/C=C\CCCC(N)=O,Sterol carrier protein 2,"NBDS displacement, fluorescent probe displacement",,"50% of maximum displacement, added: NBDS 500 nM",,4.09 ± 0.23
COC(=O)CCOC(=O)c1cncn1[C@H](c1ccccc1)C(C)C,GABRA1/GABRB3 L291T with gamma-2 subunit,"ion current, agonist, two-electrode voltage clamp",Xenopus oocytes,,baseline: 100 µM GABA,2.6 ± 0.3
CC/C=C\C/C=C\C/C=C\C/C=C\C/C=C\C/C=C\CCC(=O)NCCO,Sterol carrier protein 2,"NBDS displacement, fluorescent probe displacement",,"50% of maximum displacement, added: NBDS 500 nM",,4.33 ± 0.1
CCCC(NCC)C(=O)c1ccc2c(c1)OCO2 (centres unmarked),"SLC6A4 (Homo sapiens, UniProt P31645)","[3H]5-HT release, releaser",HEK293 expressing target,,,> 10
COC(=O)C(C)(C)COC(=O)c1cncn1[C@H](C)c1ccccc1,GABRA1/GABRB3 L291T with gamma-2 subunit,"ion current, agonist, two-electrode voltage clamp",Xenopus oocytes,,baseline: 100 µM GABA,5.5 ± 0.6
CCCCC/C=C\C/C=C\C/C=C\C/C=C\CCCC(=O)NC(CO)CO,Sterol carrier protein 2,"NBDS displacement, fluorescent probe displacement",,"50% of maximum displacement, added: NBDS 500 nM",,6.7 ± 0.28

# Repeated from above:
Structure (SMILES),target,test,test system,conditions,scale,EC50 [µM]
CC(=O)[C@H]1CC[C@H]2[C@@H]3CC[C@H]4C[C@](C)(O)CC[C@]4(C)[C@H]3CC[C@]12C,GABA A receptor alpha-1/beta-1/gamma-2,"GABA current potentiation, positive modulator, two-electrode voltage clamp",Xenopus laevis oocytes,"30 s preincubation, added: GABA EC10",,0.13 ± 0.04
COc1ccc2[nH]cc(CCNC(C)C)c2c1,"HTR2A (Homo sapiens, UniProt P28223)","β-arrestin recruitment, agonist",,,,1.07
